Measurements collected from several papers.
Protocols differ between the studies behind these lines.
Target: Phosphatidylinositol 4-phosphate 5-kinase type-1 gamma (PIP5K1C, Homo sapiens, UniProt O60331)

SMILES	observed	mode	method	tested at	reference	measurement	value
Cc1cnc2nc1Nc1cccc(c1)COC/C=C/COCc1cc(ccc1OCCN1CCOCC1)N2				concentration not given		percent of control	100%
O=C(Cc1ccc(OCc2ccccc2)cc1)NC1(C(=O)O)CCN(C(=O)c2ccc(-c3cccc(Cl)c3)cc2)CC1	enzyme activity	inhibitor		10 µM		activity vs control	103%
COc1c(Cl)cccc1Nc1c(-c2ccncc2C#C[C@@]2(C)CCCN2C(=O)/C=C/CN(C)C)[nH]c2c1C(=O)NCC2	binding		competition with immobilised ligand	3 µM		remaining binding	100%
Nc1ncc2c(n1)-c1c([nH]c3ccc(C4=CCOCC4)cc13)CCC2	binding		competition with immobilised ligand	1 µM		remaining binding	0%
Cc1nc2c(F)cc(-c3nc(Nc4ccc(CNC(=O)CCCCCCC(=O)NO)cc4)ncc3F)cc2n1C(C)C	enzyme activity	inhibitor		1 µM		inhibition	16%
CNC1C[S+]2CC[S+]3CC[S+](C1)[Ru-4]321([N]=C=S)[n]2c3ccc(OC)cc3c3c4c(c5cc(F)c[n+]1c5c32)C(=O)NC4=O (centres unmarked)			KinomeScan	0.1 µM	untreated	remaining binding	97%
CC(C)=CC1OC(C)(C)C2C=C3C(=O)C(Cl)=CC(O)C3C3C(O)C4OC4C(=O)C132 (centres unmarked)	cell-free assay		competition with immobilised ligand	10 µM		remaining binding	100%
COc1cc(Nc2nc(C)cc(-c3cnn4nc(OC)ccc34)n2)cc(C(F)(F)F)c1		inhibitor		1 µM	control	remaining activity	94%
C=CC(=O)N1Cc2nc(-c3cc(-c4cc(Cl)cnc4Cl)c(F)cc3F)n(-c3ccncn3)c2C1	cell-free assay			1 µM		inhibition	5%
C=CC(=O)N1CCc2ccc(-n3c(=O)ccc4cnc5ccc(-c6cnn(C)c6)cc5c43)cc21			KINOMEscan	1 µM	DMSO control	remaining binding	63%
CCN1CCN(Cc2ccc(C(=O)Nc3ccc(C)c(NCc4cnc5[nH]ccc5c4OC)c3)cc2C(F)(F)F)CC1	binding		competition with immobilised ligand	1 µM		remaining binding	0.9%
CNC(=O)C1CCN(c2cc(C)c(F)cc2NC(=O)c2ccc(-c3cc(O)ccc3C)c(C)c2)CC1	binding		competition with immobilised ligand	1 µM		remaining binding	95%
CNC(=O)C[C@H](Cc1ccc(C#N)cc1)NC(=O)c1cc(-c2ccc(CN[C@H](C)c3ccc(C)cc3)o2)ccc1Cl	enzyme activity	inhibitor		1 µM		activity vs control	99%
CN1CC[C@@H](COc2cnc(C#N)cc2-c2ccn3nc(NC(=O)C4CC4)cc3c2)C1	enzyme activity	inhibitor		1 µM		inhibition	20%
Cc1ccc(-c2c(/C=C(\C#N)C(=O)NC(C)C)n(CCCO)c3ncnc(N)c23)cc1	cell-free assay		competition with immobilised ligand	1 µM		remaining binding	100%
COc1cc(Nc2nccc(-c3cnn4nc(OC)ccc34)n2)cc(C(F)(F)F)c1	binding		competition with immobilised ligand	1 µM		remaining binding	100%
C=CC(=O)N1CCCC(n2c(=O)c3ncccc3n(Cc3ccc(Oc4ccccc4)cc3)c2=O)C1 (centres unmarked)	cell-free assay		competition with immobilised ligand	1 µM		remaining binding	74%
